Measurements from different studies.
Each numbered part is a random draw from the data of one study; scales do not carry over between parts.
UniProt Q00534, sequence (whole entry, looked up): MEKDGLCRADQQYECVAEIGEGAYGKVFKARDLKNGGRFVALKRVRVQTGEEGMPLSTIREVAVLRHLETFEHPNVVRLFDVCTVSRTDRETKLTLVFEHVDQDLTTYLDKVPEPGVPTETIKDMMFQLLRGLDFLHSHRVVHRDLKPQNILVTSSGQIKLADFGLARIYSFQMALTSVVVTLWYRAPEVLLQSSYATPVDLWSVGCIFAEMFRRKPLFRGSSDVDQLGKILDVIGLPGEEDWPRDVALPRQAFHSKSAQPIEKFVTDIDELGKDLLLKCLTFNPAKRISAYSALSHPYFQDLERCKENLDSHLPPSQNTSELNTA
UniProt P06493, sequence (whole entry, looked up): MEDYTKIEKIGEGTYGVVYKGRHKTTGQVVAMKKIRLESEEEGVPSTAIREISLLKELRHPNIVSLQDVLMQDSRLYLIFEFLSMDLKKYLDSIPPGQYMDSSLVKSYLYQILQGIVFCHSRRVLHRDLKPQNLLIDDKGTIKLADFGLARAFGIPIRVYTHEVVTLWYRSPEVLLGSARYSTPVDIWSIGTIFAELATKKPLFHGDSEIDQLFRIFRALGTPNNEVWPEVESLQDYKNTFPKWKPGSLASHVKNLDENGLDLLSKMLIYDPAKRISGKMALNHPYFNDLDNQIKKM
UniProt Q15746, sequence (whole entry, looked up): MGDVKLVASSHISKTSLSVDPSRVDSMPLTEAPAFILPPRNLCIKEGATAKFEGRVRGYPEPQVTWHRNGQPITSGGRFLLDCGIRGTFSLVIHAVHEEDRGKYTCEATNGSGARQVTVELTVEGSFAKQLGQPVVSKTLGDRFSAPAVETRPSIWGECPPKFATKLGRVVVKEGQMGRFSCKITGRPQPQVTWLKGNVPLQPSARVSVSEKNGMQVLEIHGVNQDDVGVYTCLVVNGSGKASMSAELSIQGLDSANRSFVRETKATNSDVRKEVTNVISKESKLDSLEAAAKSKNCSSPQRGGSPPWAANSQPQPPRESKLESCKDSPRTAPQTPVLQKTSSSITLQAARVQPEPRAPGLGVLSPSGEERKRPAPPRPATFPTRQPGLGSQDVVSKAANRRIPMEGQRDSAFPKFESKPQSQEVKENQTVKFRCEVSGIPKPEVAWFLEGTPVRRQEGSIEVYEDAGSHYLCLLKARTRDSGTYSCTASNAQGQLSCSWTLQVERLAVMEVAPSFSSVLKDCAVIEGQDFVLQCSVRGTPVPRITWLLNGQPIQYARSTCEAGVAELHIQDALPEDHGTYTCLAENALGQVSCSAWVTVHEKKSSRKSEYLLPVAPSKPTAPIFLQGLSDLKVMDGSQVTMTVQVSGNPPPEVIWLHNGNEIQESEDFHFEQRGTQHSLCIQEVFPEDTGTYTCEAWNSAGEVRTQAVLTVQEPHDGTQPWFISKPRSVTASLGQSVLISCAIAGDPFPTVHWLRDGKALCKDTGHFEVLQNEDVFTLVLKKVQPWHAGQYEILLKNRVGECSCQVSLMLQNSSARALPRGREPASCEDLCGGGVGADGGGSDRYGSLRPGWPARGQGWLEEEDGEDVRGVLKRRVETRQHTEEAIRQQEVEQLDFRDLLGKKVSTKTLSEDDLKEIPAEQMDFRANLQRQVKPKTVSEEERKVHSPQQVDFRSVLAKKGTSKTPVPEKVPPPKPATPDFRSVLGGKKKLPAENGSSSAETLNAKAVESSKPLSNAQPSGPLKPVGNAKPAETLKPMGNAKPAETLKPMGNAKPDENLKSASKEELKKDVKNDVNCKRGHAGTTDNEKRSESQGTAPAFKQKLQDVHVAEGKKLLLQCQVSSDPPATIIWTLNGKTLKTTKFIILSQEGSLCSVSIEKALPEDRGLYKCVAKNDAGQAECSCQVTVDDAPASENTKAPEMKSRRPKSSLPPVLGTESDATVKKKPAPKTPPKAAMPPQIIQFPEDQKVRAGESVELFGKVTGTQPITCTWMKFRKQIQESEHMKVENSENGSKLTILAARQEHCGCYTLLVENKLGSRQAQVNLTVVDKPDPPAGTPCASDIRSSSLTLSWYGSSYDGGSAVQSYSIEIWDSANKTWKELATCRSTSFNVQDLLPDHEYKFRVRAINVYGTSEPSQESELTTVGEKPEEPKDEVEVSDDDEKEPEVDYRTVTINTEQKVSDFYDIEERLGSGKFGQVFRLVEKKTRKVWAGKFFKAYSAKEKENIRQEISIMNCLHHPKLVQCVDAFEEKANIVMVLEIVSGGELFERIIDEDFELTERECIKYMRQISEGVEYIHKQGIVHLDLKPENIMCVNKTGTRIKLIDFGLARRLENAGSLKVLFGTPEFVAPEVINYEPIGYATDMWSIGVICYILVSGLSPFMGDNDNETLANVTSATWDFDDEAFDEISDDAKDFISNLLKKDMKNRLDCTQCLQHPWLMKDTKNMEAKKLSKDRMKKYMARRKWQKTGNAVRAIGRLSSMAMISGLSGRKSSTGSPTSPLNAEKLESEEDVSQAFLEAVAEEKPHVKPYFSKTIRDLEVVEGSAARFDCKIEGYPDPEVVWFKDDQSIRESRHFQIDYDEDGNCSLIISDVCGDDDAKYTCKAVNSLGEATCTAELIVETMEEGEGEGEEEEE
UniProt P06239, sequence (whole entry, looked up): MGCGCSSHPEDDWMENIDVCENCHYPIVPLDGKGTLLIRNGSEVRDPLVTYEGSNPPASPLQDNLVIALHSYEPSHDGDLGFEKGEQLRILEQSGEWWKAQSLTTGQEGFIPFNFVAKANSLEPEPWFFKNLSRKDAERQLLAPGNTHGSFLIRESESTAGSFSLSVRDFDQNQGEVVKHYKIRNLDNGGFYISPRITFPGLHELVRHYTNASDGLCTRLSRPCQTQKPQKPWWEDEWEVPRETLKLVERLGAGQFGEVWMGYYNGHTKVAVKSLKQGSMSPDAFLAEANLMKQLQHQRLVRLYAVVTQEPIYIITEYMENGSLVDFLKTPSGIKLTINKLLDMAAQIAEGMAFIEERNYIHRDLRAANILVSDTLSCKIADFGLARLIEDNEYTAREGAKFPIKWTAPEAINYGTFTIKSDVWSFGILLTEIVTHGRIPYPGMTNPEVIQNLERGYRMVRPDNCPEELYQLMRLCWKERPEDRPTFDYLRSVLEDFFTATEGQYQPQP
UniProt Q6XUX3, sequence (whole entry, looked up): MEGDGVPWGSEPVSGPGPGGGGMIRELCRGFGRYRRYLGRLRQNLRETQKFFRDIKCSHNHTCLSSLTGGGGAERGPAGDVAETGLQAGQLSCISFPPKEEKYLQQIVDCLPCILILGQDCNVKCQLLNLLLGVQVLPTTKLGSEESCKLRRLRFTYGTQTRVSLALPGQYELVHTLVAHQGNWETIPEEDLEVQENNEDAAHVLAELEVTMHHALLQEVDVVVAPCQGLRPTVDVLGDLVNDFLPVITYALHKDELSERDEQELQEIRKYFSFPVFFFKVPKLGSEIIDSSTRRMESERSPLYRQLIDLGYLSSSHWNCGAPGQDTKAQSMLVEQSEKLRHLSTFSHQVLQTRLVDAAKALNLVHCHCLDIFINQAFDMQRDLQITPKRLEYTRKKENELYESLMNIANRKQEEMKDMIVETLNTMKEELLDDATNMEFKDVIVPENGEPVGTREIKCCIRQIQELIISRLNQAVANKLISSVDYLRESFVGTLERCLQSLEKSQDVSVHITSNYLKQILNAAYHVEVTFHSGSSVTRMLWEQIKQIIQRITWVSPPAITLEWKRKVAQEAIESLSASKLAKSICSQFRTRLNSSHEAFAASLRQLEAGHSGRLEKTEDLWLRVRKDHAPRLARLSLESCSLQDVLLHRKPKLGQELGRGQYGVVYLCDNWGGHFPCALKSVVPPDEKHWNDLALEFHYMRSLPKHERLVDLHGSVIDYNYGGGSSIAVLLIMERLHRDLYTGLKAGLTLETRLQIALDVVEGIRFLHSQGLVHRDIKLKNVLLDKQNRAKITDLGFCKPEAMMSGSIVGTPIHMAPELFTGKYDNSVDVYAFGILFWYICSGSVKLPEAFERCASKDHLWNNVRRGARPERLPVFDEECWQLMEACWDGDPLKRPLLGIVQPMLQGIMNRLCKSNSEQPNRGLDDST
UniProt O14920, sequence (whole entry, looked up): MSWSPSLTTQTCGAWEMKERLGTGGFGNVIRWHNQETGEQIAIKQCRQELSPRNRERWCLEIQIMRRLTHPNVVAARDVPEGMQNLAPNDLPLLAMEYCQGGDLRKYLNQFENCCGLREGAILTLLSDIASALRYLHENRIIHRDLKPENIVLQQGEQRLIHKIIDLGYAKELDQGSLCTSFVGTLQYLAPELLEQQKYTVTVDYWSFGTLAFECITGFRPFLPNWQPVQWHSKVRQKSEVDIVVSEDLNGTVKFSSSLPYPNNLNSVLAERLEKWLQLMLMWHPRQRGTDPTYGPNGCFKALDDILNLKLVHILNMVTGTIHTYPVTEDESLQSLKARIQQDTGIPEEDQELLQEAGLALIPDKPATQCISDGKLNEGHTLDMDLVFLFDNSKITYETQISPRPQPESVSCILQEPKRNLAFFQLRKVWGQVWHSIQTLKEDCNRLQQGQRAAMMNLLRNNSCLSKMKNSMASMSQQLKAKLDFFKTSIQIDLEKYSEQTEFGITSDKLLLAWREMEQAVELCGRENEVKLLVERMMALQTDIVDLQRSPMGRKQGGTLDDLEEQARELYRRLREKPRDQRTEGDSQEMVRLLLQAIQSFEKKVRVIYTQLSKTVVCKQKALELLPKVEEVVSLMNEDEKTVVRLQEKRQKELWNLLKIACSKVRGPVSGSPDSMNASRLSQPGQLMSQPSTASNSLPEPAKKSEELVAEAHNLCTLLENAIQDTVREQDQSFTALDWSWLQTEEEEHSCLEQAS
UniProt P50613, sequence (whole entry, looked up): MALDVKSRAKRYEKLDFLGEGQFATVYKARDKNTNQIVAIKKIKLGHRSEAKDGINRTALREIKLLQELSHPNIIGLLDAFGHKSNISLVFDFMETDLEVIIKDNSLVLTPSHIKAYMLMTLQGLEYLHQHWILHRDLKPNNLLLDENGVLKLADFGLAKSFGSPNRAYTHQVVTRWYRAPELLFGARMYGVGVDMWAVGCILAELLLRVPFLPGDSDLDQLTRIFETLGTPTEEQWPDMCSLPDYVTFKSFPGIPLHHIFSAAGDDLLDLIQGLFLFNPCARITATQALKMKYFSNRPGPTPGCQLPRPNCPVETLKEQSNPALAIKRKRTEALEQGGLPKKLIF

Series 1
SMILES: c1ccc(N2CCN(Cc3nc4ccccc4[nH]3)CC2)nc1
Method: competition with immobilised ligand
Concentration: 1 µM
| target | test | remaining binding |
| --- | --- | --- |
| BRSK1 (Homo sapiens, UniProt Q8TDC3) | binding | 91% |
| ULK2 (Homo sapiens, UniProt Q8IYT8) | binding | 100% |
| CHEK1 (Homo sapiens, UniProt O14757) | binding | 100% |
| PDGFRA (Homo sapiens, UniProt P16234) | cell-free assay | 100% |
| Ribosomal protein S6 kinase alpha-2, N-terminal kinase domain (RPS6KA2, Homo sapiens, UniProt Q15349) | binding | 99% |
| KIT (Homo sapiens, UniProt P10721, D816V) | binding | 100% |
| LCK (Homo sapiens, UniProt P06239) | binding | 100% |
| PRKCE (Homo sapiens, UniProt Q02156) | cell-free assay | 100% |
| CDK7 (Homo sapiens, UniProt P50613) | binding | 48% |
| IKBKB (Homo sapiens, UniProt O14920) | cell-free assay | 100% |
| PIK3CA (Homo sapiens, UniProt P42336, I800L) | cell-free assay | 78% |
| DSTYK (Homo sapiens, UniProt Q6XUX3) | binding | 100% |
| Tyrosine-protein kinase ABL1, phosphorylated (ABL1, Homo sapiens, UniProt P00519) | binding | 100% |
| DYRK2 (Homo sapiens, UniProt Q92630) | binding | 100% |
| MYLK (Homo sapiens, UniProt Q15746) | binding | 80% |
| FGR (Homo sapiens, UniProt P09769) | cell-free assay | 100% |
| STK32A (Homo sapiens, UniProt Q8WU08) | binding | 100% |

Series 2
Target: Hepatocyte nuclear factor 3-alpha (Foxa1, Mus musculus, UniProt P35582, residues 1-468, full length assumed)
Method: EMSA with sequencing
Molecule type: double-stranded DNA, one strand shown
Medium: in vitro
Concentration: 10 and 20 nM
Setting: whole designed probe, mean of two concentrations, ends assumed
Reference: negative control set to 0
Direction: higher = stronger binding
Residues (chain): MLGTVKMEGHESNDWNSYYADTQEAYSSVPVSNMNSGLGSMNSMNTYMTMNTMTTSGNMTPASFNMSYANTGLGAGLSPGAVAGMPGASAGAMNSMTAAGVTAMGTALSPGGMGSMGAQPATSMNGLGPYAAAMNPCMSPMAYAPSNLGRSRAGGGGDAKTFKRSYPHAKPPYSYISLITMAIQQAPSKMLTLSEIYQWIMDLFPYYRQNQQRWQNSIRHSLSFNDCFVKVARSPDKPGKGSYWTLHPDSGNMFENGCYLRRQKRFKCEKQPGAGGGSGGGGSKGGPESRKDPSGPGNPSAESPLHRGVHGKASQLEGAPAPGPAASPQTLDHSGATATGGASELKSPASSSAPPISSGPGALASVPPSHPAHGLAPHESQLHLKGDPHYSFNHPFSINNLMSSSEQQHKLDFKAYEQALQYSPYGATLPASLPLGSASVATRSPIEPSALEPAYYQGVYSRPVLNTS
| Sequence | normalised bound fraction |
| --- | --- |
| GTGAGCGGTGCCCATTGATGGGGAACGTGTCAAATAGTGATAAGATTGACAACATCTGGAGAAAATATTTAGGAATATGACATTTATATTTTTAACAAAAGTGCAATGCTATTGCAATGTAAACAGCAAGCAGTTGGGAAAATGGCCCTGAGTATTGCTATTATTTCTCTTACTTAAAATAAAATGTGAACTTTTATGGTGAAGTGTTTTCATTGCACATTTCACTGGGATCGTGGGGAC | 0.288 ratio |
| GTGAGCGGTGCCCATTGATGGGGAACGCCTAGTGCACATCCCAGCCCTGCCTCCTGCCCCGCCTGCACGCCATGAGTGCTGAAGTCATGCCTGGCAGGGGCTGCTGGCCCAGGCCCAGAGTAATCTCACTGCGCTGAGCTCGCTGGTGTGCTGCTGGATGCTGATGAGCTTGAGGAGTGTGGGAAGTGAGCATGGGGCTGAGTAGAGATGCGGCAGGCCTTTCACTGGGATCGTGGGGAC | -0.0909 ratio |
| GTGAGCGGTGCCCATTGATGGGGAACAGAAGAATAACCAGTGGGGCCAGTCAGGGATGCTTCAGATGTCACAGCAGTACTATGGGCAGCAAGTCTCAATGCAAGGACACTGGTACAATGTAAACAAGCATATTCCATACCACTGTGTCATTTTATATCTGTTAAATGGCAAAAGGCCTGTAGTATCCCTAAAGGAAAGTAAAGCTTAAGGCCACTTTTCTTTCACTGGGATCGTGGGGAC | 0.408 ratio |
| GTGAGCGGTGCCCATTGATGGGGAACATCTGAAGGTTCTCAAGATCCTAAATGACTTCTGAAATTAAATTATGTTCAGTAAAAAGCTAAGTTAAACTCTTTAGGTTTTGAATAAACCTAAGTAAACAACAATTTTGTTGCACTAAAATAATACCTATCTTAAAAGTGGTTTCCCCAAACTATTAGCCAATCTCTTTCTCTAACCAAGCACTATTTTACCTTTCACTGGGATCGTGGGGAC | 0.436 ratio |
| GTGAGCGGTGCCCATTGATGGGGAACCTTTATTAGTTACATGAGTTGGGCAAAACCTTTTGGAATAGTACCAGTGTCACCAAGACAACAGGATGGTTATAGAAAGGCAGAAAAACAATGTAAACAAACATTTTATAAGCATAAATAATAATAGTTATTCTTCTATATACATTCAGTGTCTCTAAGCAGATCCAAAGATTTGCCAAGTTTTAATGAGATGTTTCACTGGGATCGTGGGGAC | 0.473 ratio |
| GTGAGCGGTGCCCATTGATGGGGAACCACCGCGCTCGCACGGCTTTGTCCGTGCTACAAAGCAGCCTGTTAAACTATTGGAACTAATGCGCCGCAGCTGCGCGAGTGACTTCTGCTGCTAAAGTACATAAAAAGTCCTGGGGGGAGGGCTTAACCATCAGATGCCTGCTGCTGGGTTGTTTGGCTAGTCTTTCCATTTGCTTATTCCTGAATCCAAAGGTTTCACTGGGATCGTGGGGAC | 0.195 ratio |
| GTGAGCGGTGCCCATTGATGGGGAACATGAAGGGCTGCCAGTGTAATTTGAACCTCAAATAAACAACAGATAAAACTGTAGTATAAGTATGTCCCATATACGATCATTGCACAACTTTTTGTTTGCCTAATCTGGCAAAGATATTGACTTAACACACACTAATCTGTTGACAGGTAGGTGAAATATTTGAACTTCTACGTTGCTTCTCTAATCCTGTCCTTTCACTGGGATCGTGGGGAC | 0.39 ratio |
| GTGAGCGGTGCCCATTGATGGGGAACACAATTTTTATTTGAAGGTGCCATTTTTCAATATATTCAGATGATTGTGAGTGCCATTGATTCTGTATCATATGAACAATGGCAATACCTTCCATGTTTACATAATATTAAAAACCATGTTAAGACTGAATATTTGGTGTAATGGTGCATCACATTATTCTAGCTTCCATACTAGTTGTTTTATTTGTTTGTTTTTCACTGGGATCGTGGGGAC | 0.539 ratio |

Series 3
Target: Prothrombin, mature alpha-thrombin (F2, Homo sapiens, UniProt P00734)
Method: aptamer microarray, sandwich
Molecule type: DNA with 2'F-ANA
Medium: in vitro
Concentration: 200 nM
Setting: whole 15-mer aptamer, many near background
With: Cy3 exosite-II aptamer, 400 nM
Direction: higher = stronger binding
Sequence: GGTTGGTGTGGTTGG
| Modification | mean fluorescence intensity [a.u.] |
| --- | --- |
| 2'F-ANA at 1 2 3 4 7 9 11 14 15 | 58.2 |
| 2'F-ANA at 2 4 6 7 9 11 13 15 | 134 |
| 2'F-ANA at 1 2 4 7 8 10 12 14 15 | 48.8 |
| 2'F-ANA at 1 2 5 6 7 10 12 14 | 57 |
| 2'F-ANA at 1 2 5 6 8 9 14 | 43.2 |
| 2'F-ANA at 1 2 4 8 11 13 | 96.3 |
| 2'F-ANA at 1 3 4 5 7 12 14 | 261 |
| 2'F-ANA at 1 4 6 8 9 11 | 108 |

Series 4
SMILES: C[S+]([O-])c1ccc(-c2nc(-c3ccncc3)c(-c3ccc(F)cc3)[nH]2)cc1 (centres unmarked)
Observed: enzyme activity
Mode: inhibitor
Concentration: 0.5 µM
Reference: control
| target | remaining activity |
| --- | --- |
| PRKACG (Homo sapiens, UniProt P22612) | 107% |
| EPHB1 (Homo sapiens, UniProt P54762) | 93% |
| DYRK3 (Homo sapiens, UniProt O43781) | 99% |
| MAPKAPK3 (Homo sapiens, UniProt Q16644) | 101% |
| Cyclin-dependent kinase 6, with cyclin D3 (CDK6, Homo sapiens, UniProt Q00534) | 94.6% |
| Cyclin-dependent kinase 1, with cyclin B (CDK1, Homo sapiens, UniProt P06493) | 99.1% |
| EPHA4 (Homo sapiens, UniProt P54764) | 95.6% |
| BLK (Homo sapiens, UniProt P51451) | 102% |
| AXL (Homo sapiens, UniProt P30530) | 100% |
| PHKG1 (Homo sapiens, UniProt Q16816) | 94.1% |
| HIPK2 (Homo sapiens, UniProt Q9H2X6) | 102% |

Some of these lines once more (series 3):
| Modification | mean fluorescence intensity [a.u.] |
| --- | --- |
| 2'F-ANA at 1 2 5 6 7 10 12 14 | 57 |
| 2'F-ANA at 1 4 6 8 9 11 | 108 |
| 2'F-ANA at 1 2 3 4 7 9 11 14 15 | 58.2 |
| 2'F-ANA at 1 2 4 8 11 13 | 96.3 |
